Measurements from different studies.
Each numbered part is a random draw from the data of one study; scales do not carry over between parts. Values joined by “and” are separate records of one study, mostly repeats; a detail may differ.

Sample 1
Compound: Cc1ccc2c(c1)OC(O)(C(=O)O)C(=O)N2Cc1ccccc1 (centres unmarked)
Quantity: inhibition
Arabidopsis thaliana; root length; Col-0; 6.25 µg/mL, 7 days, seed germination, dark: 12.4%
Arabidopsis thaliana; hypocotyl length; Col-0; 3.125 µg/mL, 7 days, seed germination, dark: 0.7%
Arabidopsis thaliana; root length; Col-0, seedlings; 100 µg/mL: 42.4%
Arabidopsis thaliana; hypocotyl length; Col-0; 50.0 µg/mL, 7 days, seed germination, dark: 21.5%
Arabidopsis thaliana; root length; Col-0; 3.13 µg/mL, 7 days, seed germination, dark: 10.2%
Alopecurus japonicus; fresh weight; 150 g ai/ha, pre-emergence treatment: 64.5% and 63.6% and 62.1%
Arabidopsis thaliana; hypocotyl length; Col-0, seedlings; 6.25 µg/mL: 2.25%
Arabidopsis thaliana; hypocotyl length; Col-0, seedlings; 50 µg/mL: 21.5%
Echinochloa crus-galli; fresh weight; 150 g ai/ha, post-emergence treatment: 38.5% and 42% and 42.3%
Arabidopsis thaliana; root length; Col-0; 100 µg/mL, 7 days, seed germination, dark: 42.4%
Abutilon theophrasti; fresh weight; 150 g ai/ha, pre-emergence treatment: 62.8% and 65% and 61.5%
Arabidopsis thaliana; root length; Col-0, seedlings; 12.5 µg/mL; reference: water control: 17%
Setaria viridis; fresh weight; 150 g ai/ha, pre-emergence treatment: 61.8% and 66.6% and 65.1%
Triticum aestivum; fresh weight; soil surface spray, 150 g ai/ha, 21 days, pre-emergence crop safety: 16.9% and 16.2% and 15.8%

Sample 2
SMILES: COCC1CC2C(CCC3C(O)CCC32)c2ccc(O)cc21 (centres unmarked)
Cell line: SK-OV-3
Method: DNA microarray
Quantity: expression ratio
measured: UBB; 25 µM; reference: untreated: 0.846
measured: ACTB; 25 µM; reference: untreated control: 0.83 and 0.819 and 0.831 and 0.81 and 0.86
measured: UBD; 100 µM; reference: untreated: 0.566
measured: ACTB; 100 µM; reference: untreated control: 0.523 and 0.528 and 0.545 and 0.513 and 0.511
measured: UBD; 25 µM; reference: untreated: 0.777
measured: GAPDH; 100 µM; reference: untreated control: 0.934 and 0.928 and 0.911 and 0.926 and 0.923
measured: GAPDH; 25 µM; reference: untreated control: 0.834 and 0.857 and 0.852 and 0.831 and 0.839
measured: CCL8; 25 µM; reference: untreated control: 1
measured: UBB; 100 µM; reference: untreated: 0.926
measured: CCL8; 100 µM; reference: untreated control: 1
measured: ACTA2; 100 µM; reference: untreated control: 0.612

Sample 3
SMILES: CCN1/C(=C/C=C2\CCCC(/C=C/C3=[N+](CC)c4ccccc4C3(C)C)=C2NCCCCCCCCN2CCC(Nc3nc4ccccc4n3Cc3ccc(F)cc3)CC2)C(C)(C)c2ccccc21
Cell line: U-87 MG
Concentration: concentration not given
Reference: DMSO
Quantity: log2 fold change
measured: TTC31 mRNA: -0.846
measured: NIBAN1 mRNA: 1.02
measured: ACTA2 mRNA: -2.02
measured: PDLIM2 mRNA: -1.22
measured: MSH2 mRNA: -1.1
measured: MXI1 mRNA: 0.884
measured: E2F8 mRNA: -2.47
measured: HMBOX1 mRNA: 0.877
measured: AQP9 mRNA: -1.53
measured: N4BP2 mRNA: 0.912
measured: IFI30 mRNA: -1.14

Sample 4
Cell line: Gaucher fibroblasts L444P/L444P
Method: 4-MUG hydrolysis, cell lysate
Concentration: 10 µM
Reference: DMSO
Quantity: GCase activity
CCOc1ccc2nc(Sc3nc(N4CCOCC4)nc(N4CCOCC4)n3)sc2c1: 86.1% and 117% and 120% and 104% and 123%
Ic1ccc(Nc2nc(NCCN3CCOCC3)nc(N3CCNCC3)n2)cc1: 1.72% and 8.36% and 2.04% and 6.69% and 7.49% and 6.64%
Ic1ccc(Nc2nc(NCCN3CCOCC3)nc(N3CC4CC3CO4)n2)cc1 (centres unmarked): 105% and 107% and 110% and 103% and 113% and 112%
Ic1ccc(Nc2nc(NCCN3CCCCC3)nc(N3CCOCC3)n2)cc1: 103% and 92.2% and 95.2% and 86.9% and 105% and 97.6%
Ic1ccc(Nc2nc(NCCc3c[nH]c4ccccc34)nc(NCCN3CCOCC3)n2)cc1: 106% and 96.5% and 94.2% and 99% and 101%
Ic1ccc(Nc2nc(NCCN3CCOCC3)nc(N3CCCCC3)n2)cc1: 86.5% and 93.6% and 102% and 90.1% and 92.7% and 87.5%
CCOc1ccc2nc(Sc3nc(Nc4ccc(OC)cc4)nc(N4CCOCC4)n3)sc2c1: 206% and 209% and 237% and 223%
Ic1cccc(Nc2nc(NCCN3CCOCC3)nc(N3CCOCC3)n2)c1: 132% and 142% and 143% and 133% and 122%

A few entries again (sample 4):
Ic1ccc(Nc2nc(NCCN3CCOCC3)nc(N3CCNCC3)n2)cc1: 1.72% and 8.36% and 2.04% and 6.69% and 7.49% and 6.64%
Ic1ccc(Nc2nc(NCCN3CCOCC3)nc(N3CC4CC3CO4)n2)cc1 (centres unmarked): 105% and 107% and 110% and 103% and 113% and 112%
Ic1ccc(Nc2nc(NCCN3CCCCC3)nc(N3CCOCC3)n2)cc1: 103% and 92.2% and 95.2% and 86.9% and 105% and 97.6%
Ic1ccc(Nc2nc(NCCc3c[nH]c4ccccc34)nc(NCCN3CCOCC3)n2)cc1: 106% and 96.5% and 94.2% and 99% and 101%
Ic1ccc(Nc2nc(NCCN3CCOCC3)nc(N3CCCCC3)n2)cc1: 86.5% and 93.6% and 102% and 90.1% and 92.7% and 87.5%
